Published values collected from several papers.
± gives the spread as reported.
HLA class I histocompatibility antigen, A alpha chain allele A*02:01: HLA class I histocompatibility antigen, A alpha chain, allele A*02:01 (Homo sapiens, UniProt P04439)
HLA class I histocompatibility antigen, A alpha chain allele A*24:02: HLA class I histocompatibility antigen, A alpha chain, allele A*24:02 (Homo sapiens, UniProt P04439)
ampC: Beta-lactamase (ampC, Escherichia coli K-12, UniProt P00811)
Sequence of UniProt P00811 (whole entry, looked up): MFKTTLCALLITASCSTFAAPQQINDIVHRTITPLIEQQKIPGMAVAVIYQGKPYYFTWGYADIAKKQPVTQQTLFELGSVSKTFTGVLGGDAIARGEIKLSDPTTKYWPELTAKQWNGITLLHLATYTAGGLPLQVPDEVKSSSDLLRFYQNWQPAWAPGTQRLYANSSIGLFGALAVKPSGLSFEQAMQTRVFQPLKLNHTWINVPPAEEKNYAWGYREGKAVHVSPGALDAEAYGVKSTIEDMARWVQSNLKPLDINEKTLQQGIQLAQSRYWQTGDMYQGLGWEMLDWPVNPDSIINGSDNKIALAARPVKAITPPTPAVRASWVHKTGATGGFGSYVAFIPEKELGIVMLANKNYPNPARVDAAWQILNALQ
BLK SH2 domain: Tyrosine-protein kinase Blk, SH2 domain (BLK, Homo sapiens, UniProt P51451)
Sequence of UniProt P51451 (whole entry, looked up): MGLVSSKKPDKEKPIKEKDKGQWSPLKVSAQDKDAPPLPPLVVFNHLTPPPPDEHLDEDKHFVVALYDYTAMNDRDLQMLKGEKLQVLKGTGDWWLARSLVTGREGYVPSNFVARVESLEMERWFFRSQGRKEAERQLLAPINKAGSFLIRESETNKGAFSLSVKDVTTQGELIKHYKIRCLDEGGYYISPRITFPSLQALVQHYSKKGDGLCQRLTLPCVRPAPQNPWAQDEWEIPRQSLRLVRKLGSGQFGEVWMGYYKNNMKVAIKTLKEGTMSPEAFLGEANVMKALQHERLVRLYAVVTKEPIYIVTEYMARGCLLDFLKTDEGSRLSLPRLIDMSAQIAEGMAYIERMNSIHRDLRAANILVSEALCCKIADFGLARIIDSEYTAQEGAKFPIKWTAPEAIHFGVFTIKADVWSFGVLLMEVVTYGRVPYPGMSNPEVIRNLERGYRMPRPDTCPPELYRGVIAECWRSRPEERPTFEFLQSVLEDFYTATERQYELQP
Sequence of UniProt Q96PY6 (whole entry, looked up): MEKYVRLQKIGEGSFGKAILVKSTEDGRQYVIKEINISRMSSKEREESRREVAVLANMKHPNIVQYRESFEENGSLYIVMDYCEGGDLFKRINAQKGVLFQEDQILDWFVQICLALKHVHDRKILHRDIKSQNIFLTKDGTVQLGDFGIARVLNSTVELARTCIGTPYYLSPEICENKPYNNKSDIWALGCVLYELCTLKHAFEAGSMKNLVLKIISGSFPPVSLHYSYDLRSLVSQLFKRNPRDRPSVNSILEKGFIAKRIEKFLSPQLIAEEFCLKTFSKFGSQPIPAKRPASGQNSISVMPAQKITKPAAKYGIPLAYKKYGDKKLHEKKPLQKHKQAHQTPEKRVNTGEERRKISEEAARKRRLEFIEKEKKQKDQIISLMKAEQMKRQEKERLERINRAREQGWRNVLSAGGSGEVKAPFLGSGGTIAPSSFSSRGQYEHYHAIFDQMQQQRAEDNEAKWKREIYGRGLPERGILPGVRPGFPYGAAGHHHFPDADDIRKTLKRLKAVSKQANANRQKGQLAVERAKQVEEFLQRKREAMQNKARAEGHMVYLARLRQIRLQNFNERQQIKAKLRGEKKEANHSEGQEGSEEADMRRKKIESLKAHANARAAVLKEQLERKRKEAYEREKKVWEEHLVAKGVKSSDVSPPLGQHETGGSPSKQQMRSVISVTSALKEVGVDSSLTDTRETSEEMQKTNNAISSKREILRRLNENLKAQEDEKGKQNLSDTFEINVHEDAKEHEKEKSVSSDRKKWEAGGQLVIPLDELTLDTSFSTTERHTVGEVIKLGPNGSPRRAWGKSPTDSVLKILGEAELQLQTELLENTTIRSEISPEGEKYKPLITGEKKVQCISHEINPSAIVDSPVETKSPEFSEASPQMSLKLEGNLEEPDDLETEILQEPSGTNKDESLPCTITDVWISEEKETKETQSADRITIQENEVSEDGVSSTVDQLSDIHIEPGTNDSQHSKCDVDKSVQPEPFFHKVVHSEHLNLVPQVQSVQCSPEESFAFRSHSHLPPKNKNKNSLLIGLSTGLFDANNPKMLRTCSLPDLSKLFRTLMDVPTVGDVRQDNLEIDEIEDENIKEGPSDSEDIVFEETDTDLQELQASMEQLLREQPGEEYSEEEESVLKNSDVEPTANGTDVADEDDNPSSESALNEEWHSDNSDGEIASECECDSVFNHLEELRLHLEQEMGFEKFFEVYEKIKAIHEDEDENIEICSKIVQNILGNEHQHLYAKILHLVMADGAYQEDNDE
Sequence of UniProt P32246 (whole entry, looked up): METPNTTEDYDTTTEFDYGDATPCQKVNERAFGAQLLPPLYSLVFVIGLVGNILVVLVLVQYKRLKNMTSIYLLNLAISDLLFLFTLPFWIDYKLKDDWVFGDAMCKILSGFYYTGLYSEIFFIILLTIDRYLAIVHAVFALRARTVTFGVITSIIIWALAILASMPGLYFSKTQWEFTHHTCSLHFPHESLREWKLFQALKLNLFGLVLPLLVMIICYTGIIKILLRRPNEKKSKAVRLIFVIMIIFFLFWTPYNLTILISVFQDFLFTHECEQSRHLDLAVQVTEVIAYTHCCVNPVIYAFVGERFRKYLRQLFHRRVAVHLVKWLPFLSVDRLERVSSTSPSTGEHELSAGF
Sequence of UniProt P07947 (whole entry, looked up): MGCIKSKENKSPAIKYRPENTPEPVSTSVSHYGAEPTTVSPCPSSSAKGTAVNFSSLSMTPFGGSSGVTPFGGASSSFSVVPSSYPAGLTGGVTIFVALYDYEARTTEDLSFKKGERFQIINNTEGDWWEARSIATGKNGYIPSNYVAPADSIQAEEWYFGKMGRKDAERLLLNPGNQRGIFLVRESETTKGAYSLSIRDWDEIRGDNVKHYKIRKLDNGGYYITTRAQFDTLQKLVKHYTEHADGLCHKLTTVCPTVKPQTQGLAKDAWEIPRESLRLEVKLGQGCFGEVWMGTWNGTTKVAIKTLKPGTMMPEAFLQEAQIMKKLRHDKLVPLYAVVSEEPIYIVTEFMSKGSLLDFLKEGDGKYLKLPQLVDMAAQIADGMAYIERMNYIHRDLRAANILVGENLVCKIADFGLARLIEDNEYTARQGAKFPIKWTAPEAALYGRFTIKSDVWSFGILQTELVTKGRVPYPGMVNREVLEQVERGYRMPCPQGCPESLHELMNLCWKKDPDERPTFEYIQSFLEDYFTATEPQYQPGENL
Sequence of UniProt P03023 (whole entry, unmodified, looked up): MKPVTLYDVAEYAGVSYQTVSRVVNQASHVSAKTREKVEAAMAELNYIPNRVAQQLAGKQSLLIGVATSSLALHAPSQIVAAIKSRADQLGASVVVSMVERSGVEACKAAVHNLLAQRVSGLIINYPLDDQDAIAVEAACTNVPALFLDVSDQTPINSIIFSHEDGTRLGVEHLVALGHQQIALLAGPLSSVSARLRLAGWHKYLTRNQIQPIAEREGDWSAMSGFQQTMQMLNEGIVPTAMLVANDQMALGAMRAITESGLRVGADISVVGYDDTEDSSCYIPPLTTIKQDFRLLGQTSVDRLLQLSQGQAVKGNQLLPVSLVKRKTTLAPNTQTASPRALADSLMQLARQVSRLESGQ
Sequence of UniProt P51532 (whole entry, looked up): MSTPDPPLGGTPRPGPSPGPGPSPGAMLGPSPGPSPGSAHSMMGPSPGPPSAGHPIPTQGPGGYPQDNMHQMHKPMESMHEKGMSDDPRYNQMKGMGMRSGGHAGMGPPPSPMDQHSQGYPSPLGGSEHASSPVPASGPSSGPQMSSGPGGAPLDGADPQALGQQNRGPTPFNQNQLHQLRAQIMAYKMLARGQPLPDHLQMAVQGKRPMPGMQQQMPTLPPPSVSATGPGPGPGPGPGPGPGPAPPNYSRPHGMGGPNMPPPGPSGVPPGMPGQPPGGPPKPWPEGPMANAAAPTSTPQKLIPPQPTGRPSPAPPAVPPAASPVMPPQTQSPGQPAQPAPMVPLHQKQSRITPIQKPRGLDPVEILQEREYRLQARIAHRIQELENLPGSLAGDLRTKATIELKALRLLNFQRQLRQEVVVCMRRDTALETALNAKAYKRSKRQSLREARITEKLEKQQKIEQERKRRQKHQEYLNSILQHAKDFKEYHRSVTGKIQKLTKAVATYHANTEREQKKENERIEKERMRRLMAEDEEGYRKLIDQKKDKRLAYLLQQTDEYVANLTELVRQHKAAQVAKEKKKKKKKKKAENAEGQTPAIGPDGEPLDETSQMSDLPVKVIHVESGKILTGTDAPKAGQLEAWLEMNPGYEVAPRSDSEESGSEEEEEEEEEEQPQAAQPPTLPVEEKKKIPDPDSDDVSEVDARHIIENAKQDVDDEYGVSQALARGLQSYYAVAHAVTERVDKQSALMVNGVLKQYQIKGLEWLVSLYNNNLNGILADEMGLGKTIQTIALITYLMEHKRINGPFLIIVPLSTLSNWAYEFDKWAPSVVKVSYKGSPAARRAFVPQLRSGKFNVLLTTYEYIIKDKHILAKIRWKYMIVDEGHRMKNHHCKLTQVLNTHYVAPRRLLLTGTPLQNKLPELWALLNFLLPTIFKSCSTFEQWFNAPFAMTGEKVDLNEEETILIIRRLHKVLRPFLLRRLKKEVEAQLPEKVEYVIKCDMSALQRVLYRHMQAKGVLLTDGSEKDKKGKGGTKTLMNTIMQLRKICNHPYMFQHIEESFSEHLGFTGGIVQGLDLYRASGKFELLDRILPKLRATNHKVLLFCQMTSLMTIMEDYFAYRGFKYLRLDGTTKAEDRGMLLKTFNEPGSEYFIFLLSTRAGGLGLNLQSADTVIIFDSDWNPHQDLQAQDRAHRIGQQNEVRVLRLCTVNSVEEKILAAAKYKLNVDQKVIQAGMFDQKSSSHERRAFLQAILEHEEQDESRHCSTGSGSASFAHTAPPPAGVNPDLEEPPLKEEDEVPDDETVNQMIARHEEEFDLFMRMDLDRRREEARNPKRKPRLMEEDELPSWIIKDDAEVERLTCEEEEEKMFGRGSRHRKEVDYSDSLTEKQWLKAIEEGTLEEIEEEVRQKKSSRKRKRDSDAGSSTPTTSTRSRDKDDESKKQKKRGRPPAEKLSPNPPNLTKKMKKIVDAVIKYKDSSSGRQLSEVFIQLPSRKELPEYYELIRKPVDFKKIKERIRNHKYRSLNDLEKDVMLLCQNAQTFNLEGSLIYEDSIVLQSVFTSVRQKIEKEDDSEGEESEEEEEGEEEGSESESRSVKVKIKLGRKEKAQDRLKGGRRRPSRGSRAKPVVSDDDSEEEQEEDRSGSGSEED

CC[C@H](C)[C@H](NC(=O)[C@H](CC(=O)O)NC(=O)[C@H](Cc1ccc(O)cc1)NC(=O)[C@H](CCC(N)=O)NC(=O)[C@@H](N)Cc1ccccc1)C(=O)N1CCC[C@H]1C(=O)N[C@@H](Cc1c[nH]cn1)C(=O)N[C@@H](CCC(=O)O)C(=O)N[C@@H](CCSC)C(=O)O has an IC50 of 0.218 µM (HLA class I histocompatibility antigen, A alpha chain allele A*02:01; binding).
COc1cc(Nc2ncc(F)c(Nc3ccc4c(n3)NC(=O)C(C)(C)O4)n2)cc(OC)c1OC gave an IC50 of greater than 10 µM (CCR1 (Homo sapiens, UniProt P32246)).
With CSCC[C@H](NC(=O)[C@@H](NC(=O)[C@@H]1CCCN1C(=O)[C@@H]1CCCN1C(=O)[C@H](CC(=O)O)NC(=O)[C@@H](NC(=O)[C@@H](N)CCCCN)C(C)C)C(C)C)C(=O)N[C@@H](CCC(=O)O)C(=O)N[C@@H](Cc1ccccc1)C(=O)O the IC50 was 55.7 µM (HLA class I histocompatibility antigen, A alpha chain allele A*24:02; binding).
Under “T-wave abnormality incidence”, COc1cc2c(Oc3ccc4[nH]c(C)cc4c3F)ccnc2cc1OCC1(N)CC1 is recorded as 0% (paediatric refractory sarcoma patients; 8 mg).
CSCC[C@H](NC(=O)[C@@H](N)Cc1ccc(O)cc1)C(=O)N[C@@H](Cc1ccc(O)cc1)C(=O)N[C@H](C(=O)N[C@@H](CCCCN)C(=O)N[C@@H](Cc1ccccc1)C(=O)N[C@@H](Cc1c[nH]cn1)C(=O)N[C@H](C(=O)N[C@@H](Cc1ccc(O)cc1)C(=O)O)[C@@H](C)O)[C@@H](C)O gave an IC50 of 15 µM (HLA class I histocompatibility antigen, A alpha chain allele A*02:01; binding).
O=S(=O)(NCc1cc(-c2ccccc2)n[nH]1)c1cc(Cl)cc(Cl)c1O gave a Ki of 101 µM (ampC).
CSCC[C@H](NC(=O)[C@@H](N)CCCNC(=N)N)C(=O)N[C@@H](Cc1ccc(O)cc1)C(=O)N[C@@H](CC(=O)O)C(=O)N[C@@H](CCCNC(=N)N)C(=O)N[C@@H](Cc1c[nH]cn1)C(=O)N[C@@H](Cc1ccc(O)cc1)C(=O)N[C@@H](CC(C)C)C(=O)N[C@@H](Cc1ccccc1)C(=O)O gave an IC50 of 0.045 µM (HLA class I histocompatibility antigen, A alpha chain allele A*24:02; binding).
CSCC[C@H](NC(=O)[C@H](CC(=O)O)NC(=O)c1ccc2c(c1)C(=O)OC21c2ccc(N(C)C)cc2Oc2cc(N(C)C)ccc21)C(=O)N[C@@H](CO)C(=O)N[C@@H](CCCCN)C(=O)N[C@@H](CC(=O)O)C(=O)N[C@@H](CCC(=O)O)C(=O)N[C@@H](CO)C(=O)N[C@H](C(=O)N[C@@H](CC(=O)O)C(=O)N[C@@H](Cc1ccc(OP(=O)(O)O)cc1)C(=O)N[C@H](C(=O)N1CCC[C@H]1C(=O)N[C@@H](CCSC)C(=O)N[C@@H](CC(C)C)C(=O)N[C@@H](CC(=O)O)C(=O)N[C@@H](CCSC)C(=O)N[C@@H](CCCCN)C(=O)N[C@@H](CC(=O)O)C(=O)O)C(C)C)C(C)C gave a Kd of 258 nM (BLK SH2 domain; binding).
For OC[C@H]1O[C@@H](OCCc2ccccc2)[C@H](O)[C@@H](O)[C@H]1O, the EC50 was 180 ± 12 µM (lacI (Escherichia coli, UniProt P03023, N125C); operator DNA release, nitrocellulose filter binding; added: O1 operator DNA).
For O=C(O)CCC(=O)C(=O)O, the Ki was 2220 ± 135 µM (gltA (Klebsiella pasteurii, UniProt A0A9Q9S525, H227L)).
For O=S(=O)(Nc1ccccc1OCc1cscn1)c1cccc(Cl)c1O, the Ki was 26.7 µM (ampC).
Cc1ncsc1-c1ccc(CNC(=O)[C@@H]2C[C@@H](O)CN2C(=O)[C@@H](NC(=O)C2(F)CC2)C(C)(C)C)c(OCCOc2ccc(CN3CCN(c4cc(-c5ccccc5O)nnc4N)CC3)cc2)c1 has a DC50 of 31.3 nM (SMARCA4 (Homo sapiens, UniProt P51532); degrader, immunoblot; SMARCA4 wild-type lung cancer cells; 96 h, median of twelve cell lines).
With C[C@H]1CN(c2n[nH]c3nc(N[C@H]4CC[C@H](NS(=O)(=O)CCC(F)(F)F)CC4)ncc23)CCO1 the IC50 was no less than 20 µM (NEK1 (Homo sapiens, UniProt Q96PY6); biochemical).
Cn1ncc(S(=O)(=O)NCc2ccc3c(c2)OC(C)(C)O3)c1C(=O)O gave a Ki of 194 µM (ampC).
For CC[C@H](C)[C@H](NC(=O)c1ccc2c(c1)C(=O)OC21c2ccc(N(C)C)cc2Oc2cc(N(C)C)ccc21)C(=O)N[C@@H](CCC(=O)O)C(=O)N[C@@H](CO)C(=O)N[C@@H](CO)C(=O)N[C@@H](CC(N)=O)C(=O)N[C@@H](Cc1ccc(O)cc1)C(=O)N[C@@H](CCSC)C(=O)N[C@@H](C)C(=O)N1CCC[C@H]1C(=O)N[C@@H](Cc1ccc(OP(=O)(O)O)cc1)C(=O)N[C@@H](CC(=O)O)C(=O)N[C@@H](CC(N)=O)C(=O)N[C@@H](Cc1ccc(O)cc1)C(=O)N[C@H](C(=O)N1CCC[C@H]1C(=O)N[C@@H](CO)C(=O)N[C@@H](C)C(=O)N[C@@H](CC(=O)O)C(=O)O)C(C)C, the Kd was 1850 nM (Tyrosine-protein kinase Yes, SH2 domain (YES1, Homo sapiens, UniProt P07947); binding).
The IC50 of CSCC[C@H](NC(=O)[C@H](CCC(N)=O)NC(=O)[C@H](Cc1c[nH]cn1)NC(=O)[C@@H]1CCCN1C(=O)[C@H](Cc1ccccc1)NC(=O)[C@H](CCC(N)=O)NC(=O)[C@@H](N)Cc1ccccc1)C(=O)N[C@H](C(=O)N[C@@H](Cc1ccccc1)C(=O)O)[C@@H](C)O is reported as 1.53 µM (HLA class I histocompatibility antigen, A alpha chain allele A*02:01; binding).
With CSCC[C@H](NC(=O)[C@H](CC(C)C)NC(=O)[C@H](C)NC(=O)[C@H](CCCNC(=N)N)NC(=O)[C@H](Cc1ccc(OP(=O)(O)O)cc1)NC(=O)[C@H](Cc1ccccc1)NC(=O)[C@H](CC(N)=O)NC(=O)[C@H](CO)NC(=O)[C@H](CC(=O)O)NC(=O)[C@@H](NC(=O)[C@@H]1CCCN1C(=O)[C@H](CO)NC(=O)[C@@H]1CCCN1C(=O)[C@H](CC(C)C)NC(=O)c1ccc2c(c1)C(=O)OC21c2ccc(N(C)C)cc2Oc2cc(N(C)C)ccc21)[C@@H](C)O)C(=O)N[C@@H](CC(=O)O)C(=O)N[C@@H](CCC(=O)O)C(=O)N[C@@H](CCC(=O)O)C(=O)N[C@@H](CC(=O)O)C(=O)O the Kd was 191 nM (BLK SH2 domain; binding).
The Ki of O=C(CNS(=O)(=O)c1cccc(Cl)c1O)N1CCOc2ccccc21 is reported as 190 µM (ampC).
With CSCC[C@H](NC(=O)[C@H](CO)NC(=O)[C@H](CC(C)C)NC(=O)[C@@H](NC(=O)[C@H](Cc1c[nH]cn1)NC(=O)[C@H](CCCCN)NC(=O)[C@H](Cc1ccccc1)NC(=O)[C@H](CCC(N)=O)NC(=O)[C@@H](N)CCCCN)[C@@H](C)O)C(=O)O the IC50 was 30.9 µM (HLA class I histocompatibility antigen, A alpha chain allele A*24:02; binding).

A few entries again:
For OC[C@H]1O[C@@H](OCCc2ccccc2)[C@H](O)[C@@H](O)[C@H]1O, the EC50 was 180 ± 12 µM (lacI (Escherichia coli, UniProt P03023, N125C); operator DNA release, nitrocellulose filter binding; added: O1 operator DNA).
